Measured values from different studies.
Every numbered part comes from another study and shows a few of its results, in no order.

Set 1 — read-out: enzyme activity; mode: inhibitor; concentration: 20 µM
Target: Replicase polyprotein 1ab, polymerase (rep, Severe acute respiratory syndrome coronavirus 2, UniProt P0DTD1)
`CN(C)Cc1cccc(N/C(=C2\C(=O)Nc3cc(C(N)=O)ccc32)c2ccccc2)c1` gave an inhibition of 2%.
For `O=C(c1ccc(CN2CCOCC2)cc1)N1CCN(C2CC2)CC1`, the inhibition was -1.08%.
For `Nc1nc(=O)c2c([nH]1)NCC(CNc1ccc(C(=O)N[C@@H](CCC(=O)O)C(=O)O)cc1)N2C=O` (stereo partly drawn), the inhibition was 26.7%.
For `COc1cccc2c1C(=O)c1c(O)c3c(c(O)c1C2=O)C[C@@](O)(C(C)=O)C[C@@H]3O[C@H]1C[C@H](N)[C@H](O)[C@H](C)O1`, the inhibition was 61.8%.
For `CC1(C)S[C@@H]2[C@H](N3C(=O)[C@@H](c4ccccc4)NC3(C)C)C(=O)N2[C@H]1C(=O)O`, the inhibition was 15.1%.
The inhibition of `CC(O)c1cc(C(=O)N[C@@H](C)Cn2ccc(-c3ccc(C#N)c(Cl)c3)n2)n[nH]1` (stereo partly drawn) is reported as 9.64%.
For `COc1cc2c(cc1OC)-c1cc3nc4ccccc4nc3n1C(C)(C)C2`, the inhibition was -1.24%.
`CC(C)c1nc(CN(C)C(=O)N[C@H](C(=O)N[C@@H](Cc2ccccc2)C[C@H](O)[C@H](Cc2ccccc2)NC(=O)OCc2cncs2)C(C)C)cs1` has an inhibition of 3.55%.
The inhibition of `C=CCN1CC[C@]2(C)c3cc(O)ccc3C[C@@H]1[C@@H]2C` is reported as -3.12%.
`C1N2CN3CN1CN(C2)C3` has an inhibition of 1.55%.
`O=C(O)c1cc2cccc([N+](=O)[O-])c2[nH]1` has an inhibition of 0.24%.
With `CC1(C)NC(=O)N(c2ccc([N+](=O)[O-])c(C(F)(F)F)c2)C1=O` the inhibition was 1.09%.
`Cc1nc(Nc2ccc(F)cc2)nc(N2CCc3ccccc3C2C)c1C` (stereo not drawn) gave an inhibition of 13.4%.
For `C[C@]12C=CC(=O)N[C@@H]1CC[C@@H]1[C@@H]2CC[C@]2(C)[C@@H](C(=O)Nc3cc(C(F)(F)F)ccc3C(F)(F)F)CC[C@@H]12`, the inhibition was -2.39%.
For `COc1ccc(CN2C(=O)C(=O)c3cc(OC(F)(F)F)ccc32)cc1`, the inhibition was -16.4%.
`CC(C)C1=C2[C@H]3CC[C@@H]4[C@@]5(C)CC[C@H](OC(=O)CC(C)(C)C(=O)O)C(C)(C)[C@@H]5CC[C@@]4(C)[C@]3(C)CC[C@@]2([C@@H](O)CN(CCN(C)C)Cc2ccc(Cl)cc2)CC1=O` gave an inhibition of 2.4%.
`C=CCN1CC[C@]23c4c5ccc(O)c4O[C@H]2/C(=N/NC(=O)c2ccccc2)CC[C@@]3(O)[C@H]1C5` gave an inhibition of 0.15%.
The inhibition of `CCN(CC)C(=O)N1CCN(C)CC1` is reported as 2.15%.
The inhibition of `CC(=O)OC[C@H](N)C(=O)O` is reported as 6.96%.
`CC(=O)OCC1=C(C(=O)O)N2C(=O)[C@@H](NC(=O)CSc3ccncc3)[C@H]2SC1` has an inhibition of 14.3%.
For `CCCCCCCCCCCCCCCCCCCCCC(=O)O`, the inhibition was 2.78%.
For `NCC(CS(=O)(=O)O)c1ccc(Cl)cc1` (stereo not drawn), the inhibition was 3.73%.
`CCCOc1ccc(S(=O)(=O)N2CCN(CCO)CC2)cc1-c1nc2c(CCC)cn(CC)c2c(=O)[nH]1` gave an inhibition of -8.93%.
`CC(=O)[C@H]1CC[C@H]2[C@@H]3CCC4=CC(=O)CC[C@]4(C)[C@H]3CC[C@]12C` gave an inhibition of 8.45%.
For `COc1ccccc1CN[C@H]1CCCN[C@H]1c1ccccc1`, the inhibition was 2.48%.

Set 2 — read-out: enzyme activity; mode: inhibitor; concentration: 20 µM; setting: hit confirmation
Target: Replicase polyprotein 1ab, main protease (rep, Severe acute respiratory syndrome coronavirus 2, UniProt P0DTD1)
The inhibition of `Oc1ccc2c3c1O[C@H]1c4[nH]c5c(c4C[C@@]4(O)[C@@H](C2)N(CC2CC2)CC[C@]314)C[C@@]1(O)[C@H]2Cc3ccc(O)c4c3[C@@]1(CCN2CC1CC1)[C@H]5O4` is reported as 60.4%.
`N#Cc1c(O)c2c(-c3ccc(-c4ccccc4O)cc3)csc2[nH]c1=O` has an inhibition of 9.4%.
`CN1CCN(C(=O)c2ccc(-c3ccc4c(C=O)c(O)ccc4c3)s2)CC1` gave an inhibition of 71.9%.

Set 3 — method: RNA Bind-n-Seq; form: RNA; medium: in vitro; concentration: 365 nM; relative to: no-protein control; reading: higher = stronger binding
Target: RNA binding protein fox-1 homolog 2, RRM domain, GST-SBP tag (RBFOX2, Homo sapiens, UniProt O43251-10, residues 100-194)
Setting: natural RNA segment, single round, ends assumed
Shared flanks, not repeated: GGGAGUUCUACAGUCCGACGAUC … UGGAAUUCUCGGGUGCCAA
Residues (chain): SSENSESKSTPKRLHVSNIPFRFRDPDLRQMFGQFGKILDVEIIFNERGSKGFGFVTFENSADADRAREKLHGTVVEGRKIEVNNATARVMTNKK
`AUAUUGGACUUUUUUGAGCUUUAUCGUGGUUGUUAAUUUGAAGUAAUAAAGUAGAAAAGAUAAAGUGUGCAGGCAGCCCUUUGUCCACCUCUGUGCCCUUAGGGCCUCUC` — result for “RBNS enrichment (R)”: 1.1.
Under “RBNS enrichment (R)”, `AAGGGAUUCUCCUCAGAACCCAUUGAGUCCUCCACCCCACAGUUGUGCUUGGAAGCCUGUUGACUGUGCUUAAGGUUAGGCAUUUAGGAAGCACACUGCUUUUUAAACGA` is recorded as 0.527.
Under “RBNS enrichment (R)”, `GCCAAGAACUCUUGGUUAUCCGCACAAGCUGCUGGUAGACUACAUUAGCCCUCUGGUUUUCCAGCUCAACCUCUGAUAAAGUGGACUGAGAGCCACGCUGCUCAGUCUGU` is recorded as 0.329.
`UGUUUUUCCCUCUAGGACAAACACUUACCAAAAUAUGCAACUUUUUUUUGGUGGGAAGAGAGAUUGUCCUGUGAUUUCUACCCAUUUCCUGAGGCCUGUGGAAAUAAACC`: “RBNS enrichment (R)” 5.13.
`CUAGCUCCUAACUGUCAGGCUGACGGACACCUCCCAGGUCUUGCACCCUCAUGCCAACUCUGCCCCAGGUCCAGGCCUCUGGGGCUGAUCUCAGGGAAGCCCAGCUCUGA`: “RBNS enrichment (R)” 0.358.
`AUUACUGAUGUGAUAUUCUGUUGCUUUACAGUUACAGUUGAUGUUUGGGGAUCGAUGUGCUCAGCCAAAUUUCCUGUUUGAAAUAUCAUGUUAAAUUAGAAUGAAUUUAU` — result for “RBNS enrichment (R)”: 0.876.
`UGAGACCAAAAUUUCAGAGCCCUUGAGGUGCAGAGAGCAGAGCCGUCCAAUGAUUUCAACCCUGCAGAGCACCCCGACAAUCCUGAGGCUGCAUCGGGAGCUAGAGCCAG` — result for “RBNS enrichment (R)”: 0.696.
`CUUCUAAUGCUUCACUUUUGAUGAUGCAGUAUGUUCCUUUAAAUCUUGGCAGAACUUUCUAAAGCUACUGCUUUCAAUAGAUUCCAGCCGCAUAUUCCCAUGGGCAUAUU`: “RBNS enrichment (R)” 0.474.

Set 4 — method: universal PBM; form: double-stranded DNA, one strand shown; medium: in vitro; concentration: 600 nM; reading: higher = stronger binding
Target: Sal-like protein 4, full length isoform A (SALL4, Homo sapiens, UniProt Q9UJQ4, residues 1-1053)
Sequence of UniProt Q9UJQ4 (whole entry, looked up): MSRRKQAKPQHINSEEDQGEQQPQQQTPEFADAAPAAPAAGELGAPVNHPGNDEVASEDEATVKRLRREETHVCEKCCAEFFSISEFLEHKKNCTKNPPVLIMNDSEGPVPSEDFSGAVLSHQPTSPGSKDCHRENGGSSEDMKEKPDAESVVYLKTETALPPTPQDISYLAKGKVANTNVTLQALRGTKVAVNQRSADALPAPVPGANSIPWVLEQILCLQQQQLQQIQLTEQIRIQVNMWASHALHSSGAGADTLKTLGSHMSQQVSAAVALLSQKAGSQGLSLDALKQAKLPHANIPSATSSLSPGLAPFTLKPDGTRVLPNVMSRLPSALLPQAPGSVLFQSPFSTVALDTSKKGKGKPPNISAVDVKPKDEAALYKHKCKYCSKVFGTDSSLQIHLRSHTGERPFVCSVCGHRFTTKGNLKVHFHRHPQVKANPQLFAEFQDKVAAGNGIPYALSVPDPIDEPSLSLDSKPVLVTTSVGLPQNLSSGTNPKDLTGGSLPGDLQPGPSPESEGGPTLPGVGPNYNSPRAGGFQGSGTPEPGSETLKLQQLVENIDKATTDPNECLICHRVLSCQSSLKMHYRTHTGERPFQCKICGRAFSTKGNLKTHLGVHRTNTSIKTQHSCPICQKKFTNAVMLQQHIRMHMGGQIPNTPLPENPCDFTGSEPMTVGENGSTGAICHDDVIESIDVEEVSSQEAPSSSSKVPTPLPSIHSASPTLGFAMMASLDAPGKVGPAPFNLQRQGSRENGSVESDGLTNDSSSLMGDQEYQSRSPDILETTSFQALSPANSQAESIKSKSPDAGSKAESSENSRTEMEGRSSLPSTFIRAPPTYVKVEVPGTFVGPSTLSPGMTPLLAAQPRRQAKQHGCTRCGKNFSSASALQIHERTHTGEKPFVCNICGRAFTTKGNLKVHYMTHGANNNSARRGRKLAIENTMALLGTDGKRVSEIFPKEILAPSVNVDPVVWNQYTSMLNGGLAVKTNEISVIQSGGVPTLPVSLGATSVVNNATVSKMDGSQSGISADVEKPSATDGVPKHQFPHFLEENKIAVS
Setting: 8-mer, flanks averaged, mean of replicates
`CGTAGTCC` gave an E-score of -0.199.
For `ATCTCTTC`, the E-score was 0.127.
`CACTCCTA` has an E-score of -0.0141.
For `GCTCTTAC`, the E-score was -0.109.
The E-score of `ACACCCAG` is reported as -0.257.
`CACGCCTA` has an E-score of -0.0549.
For `CACGTAAA`, the E-score was 0.156.
The E-score of `ATCAGGAA` is reported as 0.0972.

Set 5 — method: RNA Bind-n-Seq; form: RNA; medium: in vitro; concentration: 200 nM; setting: whole 134-nt RNA, ends assumed; with: 150 mM LiCl; relative to: input library; reading: higher = stronger binding; each molecule: 7-deaza-guanosine replaces G
Target: Fragile X messenger ribonucleoprotein 1, C-terminal low-complexity region (Fmr1, Mus musculus, UniProt P35922)
For `GGGAGUUCUACAGUCCGACGAUCCUCAAGUCCUGUGCUACACAUCGUAUGUACCGAAUCGGAAGGGGAAGGAAGGGAAAGUAUUAUGUUACGCCGUUCGGAUCUGCACUUCCAUGGAAUUCUCGGGUGUCAAGG`, the log2 enrichment was -0.0528.
For `GGGAGUUCUACAGUCCGACGAUCUUUCUUCCCCCACAGUUCAUCCAUGAGCUCGGAUUUCCCACAUUACAACUUCAGGAUGCCUAAUAUUGGAUUCCAGAAUCUGCCUCUCAAUGGAAUUCUCGGGUGUCAAGG`, the log2 enrichment was 1.89.
The log2 enrichment of `GGGAGUUCUACAGUCCGACGAUCAGUCCUGUGCUACACAUCGUAUGUACCGAAUCGGAAAGGAAAAAAAGGAAAAAAAGGAAAGUAUUAUGUUACGCCGUUCGGAUCUGCACUUGGAAUUCUCGGGUGUCAAGG` is reported as -1.39.
The log2 enrichment of `GGGAGUUCUACAGUCCGACGAUCUGGCCCUGGUGGCAUUCGGGGAGGAAGAGGUGGCCUCAUGGAUCGUGGUGGUCCCGGUGGAAUGUUCAGAGGUGGCCGUGGUGGAGACAGUGGAAUUCUCGGGUGUCAAGG` is reported as -0.628.

Set 6 — cell line: HEK-293T; read-out: pseudovirus infection; organism: VSV pseudotyped with SARS-CoV-2 spike; concentration: 10 µM; time: 16 h; relative to: vehicle-treated
`C[C@]12COC(=O)C[C@@H]1CC[C@@H]1[C@@H]2CC[C@@]2(C)[C@H]1CC[C@]2(C)O` has a GFP-positive cells of 82.3%.
`CCCN(CCC)CCc1cccc2c1CC(=O)N2` gave a GFP-positive cells of 74.8%.
`CC(=O)N[C@H]1[C@H]([C@H](O)[C@H](O)CO)OC(C(=O)O)=C[C@@H]1N=C(N)N` gave a GFP-positive cells of 84.4%.

For quick reference, copied from above (set 3):
`AUAUUGGACUUUUUUGAGCUUUAUCGUGGUUGUUAAUUUGAAGUAAUAAAGUAGAAAAGAUAAAGUGUGCAGGCAGCCCUUUGUCCACCUCUGUGCCCUUAGGGCCUCUC` — result for “RBNS enrichment (R)”: 1.1.
Under “RBNS enrichment (R)”, `AAGGGAUUCUCCUCAGAACCCAUUGAGUCCUCCACCCCACAGUUGUGCUUGGAAGCCUGUUGACUGUGCUUAAGGUUAGGCAUUUAGGAAGCACACUGCUUUUUAAACGA` is recorded as 0.527.
Under “RBNS enrichment (R)”, `GCCAAGAACUCUUGGUUAUCCGCACAAGCUGCUGGUAGACUACAUUAGCCCUCUGGUUUUCCAGCUCAACCUCUGAUAAAGUGGACUGAGAGCCACGCUGCUCAGUCUGU` is recorded as 0.329.
`UGUUUUUCCCUCUAGGACAAACACUUACCAAAAUAUGCAACUUUUUUUUGGUGGGAAGAGAGAUUGUCCUGUGAUUUCUACCCAUUUCCUGAGGCCUGUGGAAAUAAACC`: “RBNS enrichment (R)” 5.13.
`CUAGCUCCUAACUGUCAGGCUGACGGACACCUCCCAGGUCUUGCACCCUCAUGCCAACUCUGCCCCAGGUCCAGGCCUCUGGGGCUGAUCUCAGGGAAGCCCAGCUCUGA`: “RBNS enrichment (R)” 0.358.
`AUUACUGAUGUGAUAUUCUGUUGCUUUACAGUUACAGUUGAUGUUUGGGGAUCGAUGUGCUCAGCCAAAUUUCCUGUUUGAAAUAUCAUGUUAAAUUAGAAUGAAUUUAU` — result for “RBNS enrichment (R)”: 0.876.
`UGAGACCAAAAUUUCAGAGCCCUUGAGGUGCAGAGAGCAGAGCCGUCCAAUGAUUUCAACCCUGCAGAGCACCCCGACAAUCCUGAGGCUGCAUCGGGAGCUAGAGCCAG` — result for “RBNS enrichment (R)”: 0.696.
